Measured values of several laboratories.
Each numbered part is a random draw from the data of one study; scales do not carry over between parts.
Chain of UniProt Q13976 (whole entry, looked up): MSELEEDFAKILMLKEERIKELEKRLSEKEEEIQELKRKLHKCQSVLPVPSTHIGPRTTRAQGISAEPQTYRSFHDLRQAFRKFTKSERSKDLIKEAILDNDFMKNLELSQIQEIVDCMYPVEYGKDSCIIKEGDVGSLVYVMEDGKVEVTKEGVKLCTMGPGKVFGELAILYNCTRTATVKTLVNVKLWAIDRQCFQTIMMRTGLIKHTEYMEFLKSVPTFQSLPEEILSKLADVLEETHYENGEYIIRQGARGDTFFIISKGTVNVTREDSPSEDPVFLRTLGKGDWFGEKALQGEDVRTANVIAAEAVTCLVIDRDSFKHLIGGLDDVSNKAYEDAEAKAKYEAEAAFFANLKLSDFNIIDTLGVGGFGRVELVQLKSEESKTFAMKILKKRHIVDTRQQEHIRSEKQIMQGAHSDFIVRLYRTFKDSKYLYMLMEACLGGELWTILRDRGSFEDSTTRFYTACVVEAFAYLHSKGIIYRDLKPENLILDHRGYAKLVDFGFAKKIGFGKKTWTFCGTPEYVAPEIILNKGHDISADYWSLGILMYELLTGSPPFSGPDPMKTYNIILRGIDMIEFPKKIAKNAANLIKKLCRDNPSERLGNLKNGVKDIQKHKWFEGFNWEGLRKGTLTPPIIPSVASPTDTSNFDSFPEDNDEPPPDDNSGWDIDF

Set 1 — read-out: enzyme activity; action: inhibitor; concentration: 77 µM
Target: DNA polymerase theta, ATPase domain (POLQ, Homo sapiens, UniProt O75417)
Chain of UniProt O75417 (whole entry, unmodified, looked up): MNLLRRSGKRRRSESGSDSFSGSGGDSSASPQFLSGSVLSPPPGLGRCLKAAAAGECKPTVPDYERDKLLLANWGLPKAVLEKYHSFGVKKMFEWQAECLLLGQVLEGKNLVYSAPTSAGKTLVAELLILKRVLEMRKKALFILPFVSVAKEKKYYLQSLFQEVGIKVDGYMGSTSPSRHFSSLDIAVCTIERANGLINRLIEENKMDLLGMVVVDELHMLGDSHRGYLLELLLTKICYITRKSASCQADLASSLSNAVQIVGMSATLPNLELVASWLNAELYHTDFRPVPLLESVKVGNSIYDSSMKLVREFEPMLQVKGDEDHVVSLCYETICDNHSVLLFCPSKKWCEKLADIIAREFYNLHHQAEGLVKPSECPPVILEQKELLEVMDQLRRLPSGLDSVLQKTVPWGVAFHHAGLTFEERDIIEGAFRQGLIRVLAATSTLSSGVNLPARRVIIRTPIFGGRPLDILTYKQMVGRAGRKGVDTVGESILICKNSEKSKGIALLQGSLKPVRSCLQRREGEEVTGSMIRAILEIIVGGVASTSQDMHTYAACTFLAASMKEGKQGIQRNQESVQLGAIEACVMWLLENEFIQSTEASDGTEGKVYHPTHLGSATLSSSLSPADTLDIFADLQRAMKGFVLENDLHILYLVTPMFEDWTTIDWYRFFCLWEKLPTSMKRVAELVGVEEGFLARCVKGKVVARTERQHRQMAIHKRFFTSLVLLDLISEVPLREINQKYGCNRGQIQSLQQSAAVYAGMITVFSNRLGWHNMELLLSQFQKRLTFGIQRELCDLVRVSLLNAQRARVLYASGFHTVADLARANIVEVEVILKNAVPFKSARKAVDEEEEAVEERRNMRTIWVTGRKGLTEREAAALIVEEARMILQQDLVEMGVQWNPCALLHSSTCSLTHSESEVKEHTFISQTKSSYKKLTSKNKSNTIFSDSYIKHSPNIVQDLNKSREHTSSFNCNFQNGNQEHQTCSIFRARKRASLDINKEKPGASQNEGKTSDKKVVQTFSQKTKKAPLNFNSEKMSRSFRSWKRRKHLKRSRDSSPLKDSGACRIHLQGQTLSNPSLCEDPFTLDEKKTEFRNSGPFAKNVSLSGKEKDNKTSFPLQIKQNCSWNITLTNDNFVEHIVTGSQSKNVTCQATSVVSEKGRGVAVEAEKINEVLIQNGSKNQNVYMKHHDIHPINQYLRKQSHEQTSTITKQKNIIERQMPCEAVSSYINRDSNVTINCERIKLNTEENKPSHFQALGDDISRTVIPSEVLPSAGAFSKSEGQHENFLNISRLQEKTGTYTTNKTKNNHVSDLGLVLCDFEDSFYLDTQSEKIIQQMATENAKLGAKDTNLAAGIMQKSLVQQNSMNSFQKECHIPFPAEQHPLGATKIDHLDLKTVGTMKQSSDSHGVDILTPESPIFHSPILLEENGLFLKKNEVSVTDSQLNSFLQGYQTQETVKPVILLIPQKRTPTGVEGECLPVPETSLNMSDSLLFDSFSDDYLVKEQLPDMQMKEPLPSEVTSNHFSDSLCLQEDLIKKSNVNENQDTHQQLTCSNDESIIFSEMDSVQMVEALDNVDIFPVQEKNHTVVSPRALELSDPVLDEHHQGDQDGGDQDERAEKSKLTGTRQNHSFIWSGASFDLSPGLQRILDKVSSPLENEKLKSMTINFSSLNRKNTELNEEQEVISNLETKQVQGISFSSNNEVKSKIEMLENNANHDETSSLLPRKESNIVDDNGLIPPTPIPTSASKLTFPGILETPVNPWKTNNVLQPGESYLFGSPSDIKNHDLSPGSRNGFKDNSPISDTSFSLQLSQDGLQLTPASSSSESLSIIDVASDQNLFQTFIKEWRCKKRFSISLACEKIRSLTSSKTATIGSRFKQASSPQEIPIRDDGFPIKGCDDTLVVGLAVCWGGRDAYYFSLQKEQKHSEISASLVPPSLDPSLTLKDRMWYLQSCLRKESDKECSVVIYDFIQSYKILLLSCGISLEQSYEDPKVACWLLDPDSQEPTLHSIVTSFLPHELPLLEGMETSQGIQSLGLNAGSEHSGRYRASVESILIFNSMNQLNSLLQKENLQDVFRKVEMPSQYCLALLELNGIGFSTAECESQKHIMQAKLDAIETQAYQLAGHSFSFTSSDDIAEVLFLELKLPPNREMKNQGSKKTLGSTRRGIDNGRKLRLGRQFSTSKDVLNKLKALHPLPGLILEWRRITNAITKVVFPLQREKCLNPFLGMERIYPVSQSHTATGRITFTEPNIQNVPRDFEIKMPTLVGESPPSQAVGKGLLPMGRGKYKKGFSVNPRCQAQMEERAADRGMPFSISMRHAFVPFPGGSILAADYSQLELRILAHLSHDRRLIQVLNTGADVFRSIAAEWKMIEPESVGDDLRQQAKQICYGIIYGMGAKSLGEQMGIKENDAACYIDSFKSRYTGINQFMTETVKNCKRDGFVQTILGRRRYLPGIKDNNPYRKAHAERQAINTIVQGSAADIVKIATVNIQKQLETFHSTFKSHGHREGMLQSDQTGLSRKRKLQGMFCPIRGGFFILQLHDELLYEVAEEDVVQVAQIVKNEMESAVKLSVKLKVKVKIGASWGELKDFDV
| SMILES | remaining activity |
| --- | --- |
| Cc1ncc(CNC(=O)N(CCCl)N=O)c(N)n1 | 107% |
| CCCCCOc1ccc(-c2ccc(-c3ccc(C(=O)N[C@H]4C[C@@H](O)[C@@H](O)NC(=O)[C@@H]5[C@@H](O)[C@@H](C)CN5C(=O)[C@H]([C@@H](C)O)NC(=O)[C@H]([C@H](O)[C@@H](O)c5ccc(O)cc5)NC(=O)[C@@H]5C[C@@H](O)CN5C(=O)[C@H]([C@@H](C)O)NC4=O)cc3)cc2)cc1 | 91.8% |
| O=[N+]([O-])C=Cc1ccc2c(c1)OCO2 | 103% |

Mixed results
| Compound | target or system | test | conditions | how to read | endpoint | result |
| --- | --- | --- | --- | --- | --- | --- |
| CCCC[N+]1(C)[C@@H]2C[C@@H](OC(=O)[C@H](CO)c3ccccc3)C[C@H]1[C@@H]1O[C@@H]12 (some centres unmarked) | A-375 | – | 100 µM, 18 h | – | viability | 101% |
| O=C(O)CCCc1ccc(N(CCCl)CCCl)cc1 | Huh-7 | – | 10 µM, 24 h | – | viability | 61.6% |
| COc1ccc2c(c1)[C@]13CCCC[C@@H]1[C@H](C2)N(C)CC3 | A-375 | – | 100 µM, 18 h | – | viability | 95.4% |
| O=c1[nH]c2ccccc2n1C1CCN(Cc2ccc(-c3[nH]c4cc5ncnc5cc4nc3-c3ccccc3)cc2)CC1 | cGMP-dependent protein kinase 1 (PRKG1, Homo sapiens, UniProt Q13976) | enzyme activity, inhibitor | 0.5 µM | baseline: control | remaining activity | 103% |
| CC(CC(C(N)=O)(c1ccccc1)c1ccccc1)N(C)C (centres unmarked) | Huh-7 | – | 10 µM, 24 h | – | viability | 95.8% |

Some of these lines once more (set 1):
| SMILES | remaining activity |
| --- | --- |
| CCCCCOc1ccc(-c2ccc(-c3ccc(C(=O)N[C@H]4C[C@@H](O)[C@@H](O)NC(=O)[C@@H]5[C@@H](O)[C@@H](C)CN5C(=O)[C@H]([C@@H](C)O)NC(=O)[C@H]([C@H](O)[C@@H](O)c5ccc(O)cc5)NC(=O)[C@@H]5C[C@@H](O)CN5C(=O)[C@H]([C@@H](C)O)NC4=O)cc3)cc2)cc1 | 91.8% |
